Results of several laboratories.
Each line is one published result; not all experiments were run side by side. Numbers after ± are the reported error.
UniProt Q13464, sequence (whole entry, looked up): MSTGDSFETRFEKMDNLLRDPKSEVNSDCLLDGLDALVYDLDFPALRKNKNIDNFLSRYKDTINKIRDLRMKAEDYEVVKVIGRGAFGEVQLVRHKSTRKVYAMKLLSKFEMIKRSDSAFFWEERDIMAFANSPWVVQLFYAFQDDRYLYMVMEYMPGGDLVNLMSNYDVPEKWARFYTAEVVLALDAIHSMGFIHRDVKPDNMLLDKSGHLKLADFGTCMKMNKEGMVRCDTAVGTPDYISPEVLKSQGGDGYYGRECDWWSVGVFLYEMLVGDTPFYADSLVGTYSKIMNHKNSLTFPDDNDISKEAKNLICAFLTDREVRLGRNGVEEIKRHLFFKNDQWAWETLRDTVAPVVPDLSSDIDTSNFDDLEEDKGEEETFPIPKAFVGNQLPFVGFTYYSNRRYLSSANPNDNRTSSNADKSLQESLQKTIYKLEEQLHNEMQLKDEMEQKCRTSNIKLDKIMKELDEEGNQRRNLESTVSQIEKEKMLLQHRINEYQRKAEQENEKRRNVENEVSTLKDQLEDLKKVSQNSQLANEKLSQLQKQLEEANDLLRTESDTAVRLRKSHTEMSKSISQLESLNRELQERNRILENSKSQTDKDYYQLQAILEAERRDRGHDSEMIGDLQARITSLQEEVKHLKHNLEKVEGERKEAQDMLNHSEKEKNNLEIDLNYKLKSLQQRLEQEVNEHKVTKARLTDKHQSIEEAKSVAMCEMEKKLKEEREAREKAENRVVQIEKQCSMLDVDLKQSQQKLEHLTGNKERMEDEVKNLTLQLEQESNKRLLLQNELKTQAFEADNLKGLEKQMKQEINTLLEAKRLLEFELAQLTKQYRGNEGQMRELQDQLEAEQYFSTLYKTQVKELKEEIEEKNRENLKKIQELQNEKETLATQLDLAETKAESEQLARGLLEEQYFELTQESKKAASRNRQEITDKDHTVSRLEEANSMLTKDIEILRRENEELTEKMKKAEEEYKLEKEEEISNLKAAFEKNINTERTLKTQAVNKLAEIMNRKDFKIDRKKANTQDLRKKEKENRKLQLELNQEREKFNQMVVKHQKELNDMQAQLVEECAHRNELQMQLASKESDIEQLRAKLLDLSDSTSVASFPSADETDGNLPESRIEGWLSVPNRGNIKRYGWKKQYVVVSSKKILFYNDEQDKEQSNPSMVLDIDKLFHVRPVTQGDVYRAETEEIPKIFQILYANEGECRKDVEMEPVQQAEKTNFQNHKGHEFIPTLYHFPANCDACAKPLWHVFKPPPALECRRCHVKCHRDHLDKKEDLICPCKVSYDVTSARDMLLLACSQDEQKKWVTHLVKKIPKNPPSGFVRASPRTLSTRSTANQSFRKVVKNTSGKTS
UniProt P33533, sequence (whole entry, looked up): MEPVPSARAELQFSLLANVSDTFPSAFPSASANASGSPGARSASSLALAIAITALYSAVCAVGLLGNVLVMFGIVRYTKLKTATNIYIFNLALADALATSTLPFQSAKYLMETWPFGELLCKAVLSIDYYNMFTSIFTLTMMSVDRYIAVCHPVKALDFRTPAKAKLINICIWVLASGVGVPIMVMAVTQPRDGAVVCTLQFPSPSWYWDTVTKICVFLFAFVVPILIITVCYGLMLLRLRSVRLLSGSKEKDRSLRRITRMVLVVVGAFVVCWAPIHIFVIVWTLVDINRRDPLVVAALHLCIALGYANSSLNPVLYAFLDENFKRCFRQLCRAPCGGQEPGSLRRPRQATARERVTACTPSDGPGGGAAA
UniProt P07948, sequence (whole entry, looked up): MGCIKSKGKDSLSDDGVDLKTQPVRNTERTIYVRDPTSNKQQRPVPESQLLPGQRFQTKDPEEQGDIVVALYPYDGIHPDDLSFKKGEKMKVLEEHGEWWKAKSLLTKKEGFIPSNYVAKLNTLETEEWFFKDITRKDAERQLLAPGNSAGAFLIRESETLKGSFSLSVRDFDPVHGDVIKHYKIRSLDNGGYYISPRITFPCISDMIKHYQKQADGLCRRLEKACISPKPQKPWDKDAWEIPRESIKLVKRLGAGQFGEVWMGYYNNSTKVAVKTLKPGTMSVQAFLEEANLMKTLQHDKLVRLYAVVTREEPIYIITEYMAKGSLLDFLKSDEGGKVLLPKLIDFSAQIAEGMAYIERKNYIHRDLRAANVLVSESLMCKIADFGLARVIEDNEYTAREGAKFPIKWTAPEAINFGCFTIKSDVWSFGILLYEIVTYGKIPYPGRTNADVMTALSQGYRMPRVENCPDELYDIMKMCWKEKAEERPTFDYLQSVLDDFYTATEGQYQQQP
UniProt Q8NI60, sequence (whole entry, looked up): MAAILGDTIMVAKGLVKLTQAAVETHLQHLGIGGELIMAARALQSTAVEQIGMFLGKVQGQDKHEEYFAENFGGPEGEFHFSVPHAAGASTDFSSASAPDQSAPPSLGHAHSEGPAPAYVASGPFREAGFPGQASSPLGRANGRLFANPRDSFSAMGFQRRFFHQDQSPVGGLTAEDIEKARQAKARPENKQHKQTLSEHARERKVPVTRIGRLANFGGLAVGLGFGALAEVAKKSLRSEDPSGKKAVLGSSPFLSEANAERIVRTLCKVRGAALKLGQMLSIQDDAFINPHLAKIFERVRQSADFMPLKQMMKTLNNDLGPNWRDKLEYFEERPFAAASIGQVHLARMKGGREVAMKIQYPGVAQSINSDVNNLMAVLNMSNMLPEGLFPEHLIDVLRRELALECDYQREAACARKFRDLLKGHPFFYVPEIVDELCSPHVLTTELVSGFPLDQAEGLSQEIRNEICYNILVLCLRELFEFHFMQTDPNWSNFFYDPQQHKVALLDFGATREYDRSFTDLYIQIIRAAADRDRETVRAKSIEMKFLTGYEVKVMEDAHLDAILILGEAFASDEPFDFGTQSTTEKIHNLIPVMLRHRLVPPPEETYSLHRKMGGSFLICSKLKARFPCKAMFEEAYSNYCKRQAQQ
UniProt P50406, sequence (whole entry, looked up): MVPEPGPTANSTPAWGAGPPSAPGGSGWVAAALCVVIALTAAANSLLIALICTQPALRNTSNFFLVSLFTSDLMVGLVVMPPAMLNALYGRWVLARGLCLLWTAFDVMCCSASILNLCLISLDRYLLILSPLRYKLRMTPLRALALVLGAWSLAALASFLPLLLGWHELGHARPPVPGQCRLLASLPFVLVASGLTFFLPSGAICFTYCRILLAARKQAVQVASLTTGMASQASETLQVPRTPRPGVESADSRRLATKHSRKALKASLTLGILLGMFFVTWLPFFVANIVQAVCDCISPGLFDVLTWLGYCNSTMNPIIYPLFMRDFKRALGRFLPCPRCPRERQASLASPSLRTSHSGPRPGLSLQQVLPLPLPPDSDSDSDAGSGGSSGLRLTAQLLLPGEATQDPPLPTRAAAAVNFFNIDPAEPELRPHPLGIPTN
UniProt P07237, sequence (whole entry, looked up): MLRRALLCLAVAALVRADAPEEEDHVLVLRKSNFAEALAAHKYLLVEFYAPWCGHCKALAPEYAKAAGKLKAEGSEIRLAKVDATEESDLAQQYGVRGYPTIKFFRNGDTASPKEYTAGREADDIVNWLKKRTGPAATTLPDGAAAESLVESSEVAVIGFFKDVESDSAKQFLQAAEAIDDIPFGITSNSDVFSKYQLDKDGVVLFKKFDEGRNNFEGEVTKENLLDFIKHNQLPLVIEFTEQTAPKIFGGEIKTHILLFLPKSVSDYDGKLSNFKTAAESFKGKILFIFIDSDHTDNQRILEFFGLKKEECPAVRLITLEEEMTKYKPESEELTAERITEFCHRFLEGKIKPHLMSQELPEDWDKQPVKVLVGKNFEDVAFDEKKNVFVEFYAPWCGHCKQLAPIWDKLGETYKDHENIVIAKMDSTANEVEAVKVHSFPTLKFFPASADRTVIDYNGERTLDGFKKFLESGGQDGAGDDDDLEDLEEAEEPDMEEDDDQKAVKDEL
UniProt P22303, sequence (whole entry, looked up): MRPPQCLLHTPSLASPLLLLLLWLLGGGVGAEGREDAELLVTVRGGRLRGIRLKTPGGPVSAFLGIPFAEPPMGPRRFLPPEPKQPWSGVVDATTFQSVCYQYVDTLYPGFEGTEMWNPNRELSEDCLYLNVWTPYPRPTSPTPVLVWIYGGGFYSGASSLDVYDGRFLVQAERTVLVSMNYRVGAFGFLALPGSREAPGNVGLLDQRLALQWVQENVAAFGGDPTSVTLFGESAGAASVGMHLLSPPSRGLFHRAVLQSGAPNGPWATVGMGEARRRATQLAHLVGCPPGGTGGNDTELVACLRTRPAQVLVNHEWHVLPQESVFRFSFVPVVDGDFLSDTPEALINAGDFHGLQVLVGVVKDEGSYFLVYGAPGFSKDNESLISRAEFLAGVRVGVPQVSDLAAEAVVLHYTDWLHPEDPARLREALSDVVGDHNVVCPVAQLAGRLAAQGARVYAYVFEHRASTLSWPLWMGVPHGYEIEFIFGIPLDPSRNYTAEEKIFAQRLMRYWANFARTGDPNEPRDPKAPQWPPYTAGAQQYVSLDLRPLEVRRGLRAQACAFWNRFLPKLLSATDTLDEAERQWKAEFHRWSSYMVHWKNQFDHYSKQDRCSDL

SMILES	target	test	system	setting	scale	measurement	value
O=C(Nc1ccc([As](O)O)cc1)c1cc(C(=O)Nc2ccc([As](O)O)cc2)cc(C(=O)Nc2ccc([As](O)O)cc2)c1	Protein disulfide-isomerase, reduced (P4HB, Homo sapiens, UniProt P07237)	absorbance titration	–	concentration not given, 1 µM protein	–	binding stoichiometry	0.89 ± 0.08
CC(C)C[C@@H]1NC(=O)[C@H](Cc2ccc(O)cc2)NC(=O)[C@H](CC(N)=O)NC(=O)[C@H](CO)NC(=O)[C@@H](NC(=O)[C@@H]2CCCN2C(=O)[C@H](CC(N)=O)NC(=O)[C@H](Cc2ccc(O)cc2)NC(=O)[C@H](CCCCN)NC(=O)[C@H](CO)NC(=O)[C@H](C)NC(=O)[C@@H](N)CC(N)=O)CSC1=O	Accessory gene regulator protein C (Staphylococcus epidermidis, UniProt Q8VSX2)	–	–	concentration not given	–	activity	inactive
CN(C)[C@H]1C[C@@]23CC[C@@]4(O2)C(=CC[C@]2(C)[C@@H](c5ccc6ccncc6c5)CC[C@H]24)C=C3[C@@H](O)[C@@H]1O	Tyrosine-protein kinase Lyn (LYN, Homo sapiens, UniProt P07948)	enzyme activity, inhibitor	–	1 µM	–	inhibition	-27.8%
O=C1NC(=O)c2c1c1cc(F)c[n+]3c1c1c2c2cc(O)ccc2[n]1[Ru-4]312([N]=C=S)[S+]3CC[S+]1CC[S+]2CC3 (stereo not shown)	Tyrosine-protein kinase SYK (SYK, Homo sapiens, UniProt P43405)	enzyme activity	–	100 nM, human enzyme, added: 10 µM ATP	relative to: untreated	remaining activity	120%
CC(C)[C@H]1NC(=O)C[C@H]2/C=C/CCSSC[C@@H](NC1=O)C(=O)N[C@H](Cc1cccc3ccccc13)C(=O)NCC(=O)O2	Serine/threonine-protein kinase MRCK beta (CDC42BPB, Homo sapiens, UniProt Q9Y5S2)	enzyme activity, inhibitor	–	10 µM	–	inhibition	-1.4%
CCOC(=O)[C@@H]1Cc2c(cc([N+](=O)[O-])cc2[N+](=O)[O-])[C@H](O)[C@]12C(=O)Nc1ccc(Br)cc12	Atypical kinase COQ8A, mitochondrial (COQ8A, Homo sapiens, UniProt Q8NI60)	binding, competition with immobilised ligand	–	0.1 µM	–	remaining binding	100%
C[C@@H](O)[C@@H]1CN([C@H](Cc2ccc3ccccc3c2)CN2CCC[C@H]2CN2CCNC[C@@H]2Cc2ccc3ccccc3c2)CCN1CCCC1CCCC1	Delta-type opioid receptor (Oprd1, Rattus norvegicus, UniProt P33533)	radioligand binding	rat brain membranes	500 nM, pH 7.5, 25 °C, added: 2 nM [3H]DPDPE	–	remaining binding	84.8%
CCCCC[C@@H]1OC(=O)[C@@H](C)N(C)C(=O)[C@H](CCCCC)OC(=O)[C@@H](C)N(C)C(=O)[C@H](CCCCC)OC(=O)[C@@H](C)N(C)C(=O)[C@H](CCCCC)OC(=O)[C@@H](C)N(C)C1=O	ryanodine receptor 2 (Sus scrofa, UniProt A0A5G2R1W3)	single-channel gating, planar lipid bilayer	–	3 µM, pCa 7, porcine	–	closed dwell time constant T1	11.1 ± 4.7 ms
C=C(c1ccccc1)[C@H](N)P(=O)(O)O	PAL1 (Petroselinum crispum, UniProt P24481)	L-Phe deamination, inhibitor, UV steady-state kinetics	–	100 µM, added: L-Phe 5 mM	–	reaction rate reduction	69%
CS(C)(=O)=Nc1ccc(-c2ccc(-c3nc4cc(O[C@@H]5CO[C@H]6[C@@H]5OC[C@H]6O)[nH]c4cc3F)cc2)cc1	5-hydroxytryptamine receptor 6 (HTR6, Homo sapiens, UniProt P50406)	calcium signal, antagonist	–	10 µM	–	inhibition	9%
CCc1nnc(-c2c(OC)cc(-c3cnc4cc(-c5cnn(C)c5)ccn34)cc2OC)o1	Acetylcholinesterase (ACHE, Homo sapiens, UniProt P22303)	radioligand binding	–	10 µM, SafetyScreen44 replicate 2	lower = stronger displacement	remaining binding	94.2%
CC(=O)N[C@H](C(=O)N[C@@H](CCCNC(=N)N)C(=O)NCC(=O)N[C@@H](CO)C(=O)N[C@@H](CS)C(=O)N[C@@H](CCCNC(=N)N)C(=O)N[C@@H](CCCCN)C(=O)N[C@@H](CCCNC(=N)N)C(=O)N[C@@H](CC(N)=O)C(=O)N[C@@H](CCCNC(=N)N)C(=O)N[C@@H](CO)C(=O)N1CCC[C@H]1C(=O)N[C@@H](CCC(=O)O)C(=O)N[C@@H](CCCNC(=N)N)C(N)=O)[C@@H](C)O	WD repeat-containing protein 5 (WDR5, Homo sapiens, UniProt P61964)	binding, competitor of LANA peptide, ITC	–	pH 7.0, 20 °C, WIN motif peptide	–	ΔG	-7.6 kcal/mol
O=C(N[C@@H]1c2ccccc2C[C@H]1N1CCCC1)c1ccc(-c2ccnc3[nH]ccc23)nc1	Rho-associated protein kinase 1 (ROCK1, Homo sapiens, UniProt Q13464)	binding, competition with immobilised ligand	–	3 µM	–	remaining binding	0.1%

Some of these lines once more:
SMILES	target	test	system	setting	scale	measurement	value
CC(C)C[C@@H]1NC(=O)[C@H](Cc2ccc(O)cc2)NC(=O)[C@H](CC(N)=O)NC(=O)[C@H](CO)NC(=O)[C@@H](NC(=O)[C@@H]2CCCN2C(=O)[C@H](CC(N)=O)NC(=O)[C@H](Cc2ccc(O)cc2)NC(=O)[C@H](CCCCN)NC(=O)[C@H](CO)NC(=O)[C@H](C)NC(=O)[C@@H](N)CC(N)=O)CSC1=O	Accessory gene regulator protein C (Staphylococcus epidermidis, UniProt Q8VSX2)	–	–	concentration not given	–	activity	inactive
